Measured values gathered from unrelated publications.
Protocols differ between the studies behind these lines. ± gives the spread as reported.
Chain of UniProt Q9P2K8 (whole entry, looked up): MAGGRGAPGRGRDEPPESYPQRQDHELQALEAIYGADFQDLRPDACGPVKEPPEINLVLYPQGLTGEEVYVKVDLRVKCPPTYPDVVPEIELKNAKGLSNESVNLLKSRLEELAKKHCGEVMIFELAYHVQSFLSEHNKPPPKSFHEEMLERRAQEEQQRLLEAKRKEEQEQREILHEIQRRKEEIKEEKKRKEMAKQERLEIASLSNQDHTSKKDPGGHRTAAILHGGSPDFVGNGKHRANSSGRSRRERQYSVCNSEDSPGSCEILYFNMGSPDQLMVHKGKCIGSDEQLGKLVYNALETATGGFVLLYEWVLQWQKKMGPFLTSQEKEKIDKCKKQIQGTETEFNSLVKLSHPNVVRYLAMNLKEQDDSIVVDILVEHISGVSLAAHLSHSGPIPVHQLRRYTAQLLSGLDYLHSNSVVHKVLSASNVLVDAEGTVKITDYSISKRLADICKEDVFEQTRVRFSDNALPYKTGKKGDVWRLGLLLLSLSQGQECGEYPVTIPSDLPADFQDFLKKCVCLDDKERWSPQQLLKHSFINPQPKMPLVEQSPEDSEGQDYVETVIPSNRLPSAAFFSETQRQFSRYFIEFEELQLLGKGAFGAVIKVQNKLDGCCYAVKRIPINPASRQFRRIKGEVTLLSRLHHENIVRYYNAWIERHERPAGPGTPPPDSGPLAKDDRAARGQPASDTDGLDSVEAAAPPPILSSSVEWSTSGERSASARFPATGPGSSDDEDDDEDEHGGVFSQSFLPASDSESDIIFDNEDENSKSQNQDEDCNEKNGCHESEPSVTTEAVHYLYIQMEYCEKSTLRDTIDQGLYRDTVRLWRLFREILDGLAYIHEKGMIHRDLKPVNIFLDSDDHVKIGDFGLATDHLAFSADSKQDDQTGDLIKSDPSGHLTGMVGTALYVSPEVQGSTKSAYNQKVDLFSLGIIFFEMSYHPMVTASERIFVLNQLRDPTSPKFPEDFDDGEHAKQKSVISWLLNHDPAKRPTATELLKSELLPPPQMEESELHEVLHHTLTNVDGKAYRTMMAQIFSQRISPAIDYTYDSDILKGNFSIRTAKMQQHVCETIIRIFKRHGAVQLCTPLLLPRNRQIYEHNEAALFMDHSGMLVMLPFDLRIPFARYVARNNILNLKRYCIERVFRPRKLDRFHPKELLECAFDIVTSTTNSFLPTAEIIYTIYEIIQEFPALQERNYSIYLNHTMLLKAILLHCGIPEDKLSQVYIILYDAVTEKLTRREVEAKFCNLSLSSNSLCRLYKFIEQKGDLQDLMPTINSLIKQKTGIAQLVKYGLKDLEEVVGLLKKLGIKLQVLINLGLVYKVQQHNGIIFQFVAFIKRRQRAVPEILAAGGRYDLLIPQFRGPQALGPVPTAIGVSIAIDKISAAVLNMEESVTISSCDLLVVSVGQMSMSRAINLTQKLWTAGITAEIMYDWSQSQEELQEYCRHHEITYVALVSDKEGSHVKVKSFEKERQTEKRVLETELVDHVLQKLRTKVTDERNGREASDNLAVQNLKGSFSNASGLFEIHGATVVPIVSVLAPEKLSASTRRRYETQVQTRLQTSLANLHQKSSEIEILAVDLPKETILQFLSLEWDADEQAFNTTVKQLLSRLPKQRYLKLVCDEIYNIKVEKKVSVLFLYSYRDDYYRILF

CSCC[C@H](NC(=O)CNC(=O)[C@H](CCCCN)NC(=O)[C@H](CC(C)C)NC(=O)[C@@H]1CCCN1C(=O)[C@H](CO)NC(=O)[C@H](Cc1c[nH]cn1)NC(=O)[C@H](Cc1c[nH]c2ccccc12)NC(=O)[C@H](CCCNC(=N)N)NC(=O)[C@H](CC(C)C)NC(=O)[C@H](CCCNC(=N)N)NC(=O)[C@H](Cc1c[nH]c2ccccc12)NC(=O)[C@H](CS)NC(=O)CCCCCNC(=O)CN1CCN(CC(=O)O)CCN(CC(=O)O)CCN(CC(=O)O)CC1)C(=O)O [copper-64 labelled]  tissue uptake (ex vivo biodistribution; BALB/c nude mice, muscle; intravenous, dose not given, 18 h, Huh-7 tumour-bearing): 0.55 %ID/g
CC[C@H](C)[C@H](NC(=O)[C@H](CCCNC(=N)N)NC(=O)[C@H](CCCCN)NC(=O)[C@H](Cc1ccc(O)cc1)NC(=O)[C@H](CC(=O)O)NC(=O)[C@H](C)NC(=O)CNC(=O)CCOCCOCCOCCNC(=O)CN1CCN(CC(=O)O)CCN(CC(=O)O)CCN(CC(=O)O)CC1)C(=O)N[C@H](C(=O)N[C@@H](CC(C)C)C(=O)N[C@@H](CCCCN)C(=O)N[C@H](C(=O)N[C@@H](CC(N)=O)C(N)=O)C(C)C)[C@@H](C)O [copper-64 labelled]  tissue uptake (ex vivo gamma counting; C57BL/6J male mice, B16-F10 tumour, spleen; intravenous, 1.85 MBq, 40 min): 1.93 ± 0.354 %ID/g
CS(C)(=O)=Nc1ccc(-c2ccc(-c3nc4cc(O[C@@H]5CO[C@H]6[C@@H]5OC[C@H]6O)[nH]c4cc3F)cc2)cc1  inhibition (EIF2AK4 (Homo sapiens, UniProt Q9P2K8); enzyme activity, inhibitor; 10 µM): 8%
C[C@H](O)[C@@H](NC(=O)[C@H]1CCCN1C(=O)[C@@H](CCCCN)NC(=O)[C@@H](CO)NC(=O)[C@@H](Cc1ccc(O)cc1)NC(=O)[C@@H](CC(N)=O)NC(=O)CCOCCOCCOCCNC(=O)CN1CCN(CC(=O)O)CCN(CC(=O)O)CCN(CC(=O)O)CC1)C(=O)N[C@H](CC(=O)O)C(=O)N[C@H](CCCNC(=N)N)C(=O)N[C@H](CCC(N)=O)C(=O)N[C@H](Cc1ccc(O)cc1)C(=O)N[C@H](Cc1c[nH]cn1)C(=O)N[C@H](Cc1ccccc1)C(N)=O [gallium-68 labelled]  tissue uptake (BALB/c nude mice U-87 MG tumour, heart; intravenous, 1.85 MBq, 0.08333 h, radiolabelled): 1.19 ± 0.39 %ID/g
COc1ccccc1-c1n[nH]c2nc(NC3CCN(C(=O)Cc4ccc(F)cc4F)CC3)ncc12  relative abundance (bead binding, competition bead pull-down, item: LMJF.35.0980; Leishmania donovani extract; 10 µM; relative to: vehicle): 1.04
CN1Cc2cc(Cl)ccc2-n2c(nnc2C2CCN(c3cccc([18F])n3)CC2)C1  tissue uptake (C57BL/6 mouse male, spleen; intravenous, dose not given, 30 min, together with: blocking agent 10 mg/kg): 4.17 ± 1.37 %ID/g
O=C1NC2(CC2)COc2ncc(F)cc2[C@H]2COCCN2c2ccn3ncc1c3n2  serum total protein (Sprague-Dawley rat, female, serum; oral, 10 mg/kg/day, end of treatment, 4-week subacute toxicity): 59.5 ± 3.4 g/L
CC[C@H](C)[C@H](NC(=O)[C@H](CCCCN)NC(=O)CNC(=O)[C@H](CC(C)C)NC(=O)[C@H](Cc1ccccc1)NC(=O)[C@H](CCCCN)NC(=O)[C@H](CO)NC(=O)[C@H](Cc1ccccc1)NC(=O)[C@H](Cc1c[nH]c2ccccc12)NC(=O)[C@H](CCC(N)=O)NC(=O)[C@@H](NC(=O)[C@H](Cc1ccccc1)NC(=O)CCCCCNC(=O)CN1CCN(CC(=O)O)CCN(CC(=O)O)CCN(CC(=O)O)CC1)C(C)C)C(=O)N[C@@H](CCC(=O)O)C(=O)N1CCC[C@H]1C(=O)N[C@@H](CC(=O)O)C(=O)N[C@H](C(=O)N[C@@H](CO)C(=O)N[C@@H](CCC(N)=O)C(=O)N[C@H](C(=O)N[C@@H](CCC(N)=O)C(=O)N[C@@H](CC(=O)O)C(=O)N1CCC[C@H]1C(=O)N[C@@H](CC(N)=O)C(=O)N[C@@H](CC(=O)O)C(=O)N[C@@H](CCC(N)=O)C(=O)N[C@@H](Cc1ccc(O)cc1)C(=O)N[C@@H](CCC(=O)O)C(=O)N1CCC[C@H]1C(=O)N[C@@H](Cc1ccccc1)C(=O)O)C(C)C)C(C)C [copper-64 labelled]  tissue uptake (BALB/c mice, male, CT26 tumour-bearing, brain; 2 h, vehicle-treated): 0.12 ± 0.02 %ID/g
COc1ccccc1-c1n[nH]c2nc(N[C@H]3CC[C@H](NS(=O)(=O)CC(C)C)CC3)ncc12  relative abundance (bead binding, competition bead pull-down, item: LINJ.10.0330; Leishmania donovani extract; 10 µM; relative to: vehicle): 0.9
Cc1ccccc1-c1ccc(-c2nc(-c3ccc(CN(C)CCCC(=O)O)c([18F])c3)no2)cc1C(F)(F)F  tissue uptake (Sprague Dawley rats, male, fat; 30 min): 0.1 ± 0.02 %ID/g
CCCC[C@H]1C(=O)N(C)[C@@H](CCCC)C(=O)N[C@@H](CCCNC(=O)CN2CCN(CC(=O)O)CCN(CC(=O)O)CCN(CC(=O)O)CC2)C(=O)N[C@H](C(=O)NCC(N)=O)CSCC(=O)N[C@@H](Cc2ccc(O)cc2)C(=O)N(C)[C@@H](C)C(=O)N[C@@H](CC(N)=O)C(=O)N2CCC[C@H]2C(=O)N[C@@H](Cc2c[nH]cn2)C(=O)N[C@@H](CC(C)C)C(=O)N(C)CC(=O)N[C@@H](Cc2c[nH]c3ccccc23)C(=O)N[C@@H](CO)C(=O)N[C@@H](Cc2c[nH]c3ccccc23)C(=O)N1C [gallium-68 labelled]  tissue uptake (NOD/SCID mice, CHO-hPD-L1 xenograft, spleen; 60 min, together with: blocking agent 50 µg co-injected): 4.56 ± 0.64 %ID/g
CC[C@H](C)[C@H](NC(=O)[C@H](CCCNC(=N)N)NC(=O)[C@H](CCCCN)NC(=O)[C@H](Cc1ccc(O)cc1)NC(=O)[C@H](CC(=O)O)NC(=O)[C@H](C)NC(=O)CNC(=O)CCOCCOCCOCCNC(=O)CN1CCN(CC(=O)O)CCN(CC(=O)O)CCN(CC(=O)O)CC1)C(=O)N[C@H](C(=O)N[C@H](C(=O)N[C@@H](CCCCN)C(=O)N[C@H](C(=O)N[C@@H](CC(N)=O)C(N)=O)C(C)C)C(C)C)[C@@H](C)O [copper-64 labelled]  tissue uptake (ex vivo gamma counting; C57BL/6J male mice, B16-F10 tumour, testis; intravenous, 1.85 MBq, 100 min): 0.505 ± 0.076 %ID/g
CC(C)C[C@@H](NC(=O)[C@@H](CCCNC(=N)N)NC(=O)[C@@H](Cc1c[nH]cn1)NC(=O)[C@@H](Cc1c[nH]c2ccccc12)NC(=O)[C@@H](Cc1c[nH]cn1)NC(=O)[C@@H](Cc1ccccc1)NC(=O)[C@H](NC(=O)[C@@H](Cc1ccc(O)cc1)NC(=O)CNC(=O)CNC(=O)CCOCCOCCOCCNC(=O)CN1CCN(CC(=O)O)CCN(CC(=O)O)CC1)[C@H](C)O)C(=O)N[C@H](CC(N)=O)C(=O)N1CCC[C@@H]1C(=O)O [gallium-68 labelled]  tissue uptake (gamma counting; C57BL/6 mice, male, bone; intravenous, 1.85 MBq, 60 min): 0.54 ± 0.26 %ID/g
O=C([O-])CNC(=O)CN1CCN(CC(=O)NCC(=O)[O-])CCN(CC(=O)NCC(=O)[O-])CCN(CC(=O)NCC(=O)[O-])CC1.[177Lu+3]  tissue uptake (Sprague-Dawley rat, muscle; intravenous (tail vein), dose not given, 2 h): 0.003 ± 0.001 % injected dose/g
Cc1nc2cccc(OCC(C)(C)C(=O)NC(C)C)c2c(N)c1C(=O)[O-].[Na+]  revertant colonies per plate (Salmonella typhimurium; TA98; 0.13 mg per plate, without S9, preincubation): 25 ± 6

Repeated from above:
Cc1ccccc1-c1ccc(-c2nc(-c3ccc(CN(C)CCCC(=O)O)c([18F])c3)no2)cc1C(F)(F)F  tissue uptake (Sprague Dawley rats, male, fat; 30 min): 0.1 ± 0.02 %ID/g
COc1ccccc1-c1n[nH]c2nc(N[C@H]3CC[C@H](NS(=O)(=O)CC(C)C)CC3)ncc12  relative abundance (bead binding, competition bead pull-down, item: LINJ.10.0330; Leishmania donovani extract; 10 µM; relative to: vehicle): 0.9
